Assay results of several laboratories.
Each numbered part is a random draw from the data of one study; scales do not carry over between parts.
Chain of UniProt O15146 (whole entry, looked up): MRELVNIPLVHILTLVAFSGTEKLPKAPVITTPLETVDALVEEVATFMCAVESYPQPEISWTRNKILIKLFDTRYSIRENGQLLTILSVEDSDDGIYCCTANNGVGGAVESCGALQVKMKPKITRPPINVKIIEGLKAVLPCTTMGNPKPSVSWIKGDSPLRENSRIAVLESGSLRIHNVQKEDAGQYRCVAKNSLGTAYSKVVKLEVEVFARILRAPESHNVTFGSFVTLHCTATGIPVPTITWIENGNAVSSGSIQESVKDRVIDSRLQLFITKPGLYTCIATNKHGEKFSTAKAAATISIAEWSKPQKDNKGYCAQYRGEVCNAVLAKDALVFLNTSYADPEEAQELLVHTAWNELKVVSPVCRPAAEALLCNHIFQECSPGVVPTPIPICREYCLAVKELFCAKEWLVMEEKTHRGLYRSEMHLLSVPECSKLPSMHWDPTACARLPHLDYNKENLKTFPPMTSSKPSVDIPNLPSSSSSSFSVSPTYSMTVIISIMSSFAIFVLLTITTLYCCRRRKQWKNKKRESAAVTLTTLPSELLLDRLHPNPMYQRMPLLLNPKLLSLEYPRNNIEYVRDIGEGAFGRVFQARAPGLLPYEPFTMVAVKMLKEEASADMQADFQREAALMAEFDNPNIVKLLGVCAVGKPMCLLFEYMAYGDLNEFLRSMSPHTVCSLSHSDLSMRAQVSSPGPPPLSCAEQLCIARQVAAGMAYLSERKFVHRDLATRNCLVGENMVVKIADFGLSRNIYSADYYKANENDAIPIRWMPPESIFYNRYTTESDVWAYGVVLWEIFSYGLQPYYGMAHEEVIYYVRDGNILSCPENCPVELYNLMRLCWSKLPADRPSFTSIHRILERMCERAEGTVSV
Chain of UniProt P42680 (whole entry, looked up): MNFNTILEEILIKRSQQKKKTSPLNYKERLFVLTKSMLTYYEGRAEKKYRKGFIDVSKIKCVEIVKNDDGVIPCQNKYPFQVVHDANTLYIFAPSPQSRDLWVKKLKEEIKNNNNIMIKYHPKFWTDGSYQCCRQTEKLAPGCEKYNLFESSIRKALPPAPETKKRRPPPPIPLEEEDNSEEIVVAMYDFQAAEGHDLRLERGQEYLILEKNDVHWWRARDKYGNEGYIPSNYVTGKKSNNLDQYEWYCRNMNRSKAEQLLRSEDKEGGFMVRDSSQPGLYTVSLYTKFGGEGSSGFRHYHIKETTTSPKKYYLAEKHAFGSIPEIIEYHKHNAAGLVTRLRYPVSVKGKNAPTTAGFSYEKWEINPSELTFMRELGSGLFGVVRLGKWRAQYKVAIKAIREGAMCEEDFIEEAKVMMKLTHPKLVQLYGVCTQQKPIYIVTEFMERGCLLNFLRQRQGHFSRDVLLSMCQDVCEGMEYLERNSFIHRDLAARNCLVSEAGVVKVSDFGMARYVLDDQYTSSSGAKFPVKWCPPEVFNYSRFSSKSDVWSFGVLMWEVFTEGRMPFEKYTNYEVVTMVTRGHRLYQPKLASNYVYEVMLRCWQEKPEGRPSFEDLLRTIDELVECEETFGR
Chain of UniProt P49841 (whole entry, looked up): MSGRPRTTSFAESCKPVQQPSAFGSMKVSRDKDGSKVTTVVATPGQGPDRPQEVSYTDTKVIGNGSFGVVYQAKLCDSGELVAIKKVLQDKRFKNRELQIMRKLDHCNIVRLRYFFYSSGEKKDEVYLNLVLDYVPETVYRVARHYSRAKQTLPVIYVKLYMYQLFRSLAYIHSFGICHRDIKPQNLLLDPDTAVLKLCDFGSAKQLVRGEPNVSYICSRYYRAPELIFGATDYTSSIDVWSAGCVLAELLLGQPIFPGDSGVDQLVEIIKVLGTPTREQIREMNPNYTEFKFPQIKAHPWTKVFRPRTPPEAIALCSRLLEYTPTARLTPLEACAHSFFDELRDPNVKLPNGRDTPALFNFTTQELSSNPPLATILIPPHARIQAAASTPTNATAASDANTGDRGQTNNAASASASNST
Chain of UniProt Q8WXR4 (whole entry, looked up): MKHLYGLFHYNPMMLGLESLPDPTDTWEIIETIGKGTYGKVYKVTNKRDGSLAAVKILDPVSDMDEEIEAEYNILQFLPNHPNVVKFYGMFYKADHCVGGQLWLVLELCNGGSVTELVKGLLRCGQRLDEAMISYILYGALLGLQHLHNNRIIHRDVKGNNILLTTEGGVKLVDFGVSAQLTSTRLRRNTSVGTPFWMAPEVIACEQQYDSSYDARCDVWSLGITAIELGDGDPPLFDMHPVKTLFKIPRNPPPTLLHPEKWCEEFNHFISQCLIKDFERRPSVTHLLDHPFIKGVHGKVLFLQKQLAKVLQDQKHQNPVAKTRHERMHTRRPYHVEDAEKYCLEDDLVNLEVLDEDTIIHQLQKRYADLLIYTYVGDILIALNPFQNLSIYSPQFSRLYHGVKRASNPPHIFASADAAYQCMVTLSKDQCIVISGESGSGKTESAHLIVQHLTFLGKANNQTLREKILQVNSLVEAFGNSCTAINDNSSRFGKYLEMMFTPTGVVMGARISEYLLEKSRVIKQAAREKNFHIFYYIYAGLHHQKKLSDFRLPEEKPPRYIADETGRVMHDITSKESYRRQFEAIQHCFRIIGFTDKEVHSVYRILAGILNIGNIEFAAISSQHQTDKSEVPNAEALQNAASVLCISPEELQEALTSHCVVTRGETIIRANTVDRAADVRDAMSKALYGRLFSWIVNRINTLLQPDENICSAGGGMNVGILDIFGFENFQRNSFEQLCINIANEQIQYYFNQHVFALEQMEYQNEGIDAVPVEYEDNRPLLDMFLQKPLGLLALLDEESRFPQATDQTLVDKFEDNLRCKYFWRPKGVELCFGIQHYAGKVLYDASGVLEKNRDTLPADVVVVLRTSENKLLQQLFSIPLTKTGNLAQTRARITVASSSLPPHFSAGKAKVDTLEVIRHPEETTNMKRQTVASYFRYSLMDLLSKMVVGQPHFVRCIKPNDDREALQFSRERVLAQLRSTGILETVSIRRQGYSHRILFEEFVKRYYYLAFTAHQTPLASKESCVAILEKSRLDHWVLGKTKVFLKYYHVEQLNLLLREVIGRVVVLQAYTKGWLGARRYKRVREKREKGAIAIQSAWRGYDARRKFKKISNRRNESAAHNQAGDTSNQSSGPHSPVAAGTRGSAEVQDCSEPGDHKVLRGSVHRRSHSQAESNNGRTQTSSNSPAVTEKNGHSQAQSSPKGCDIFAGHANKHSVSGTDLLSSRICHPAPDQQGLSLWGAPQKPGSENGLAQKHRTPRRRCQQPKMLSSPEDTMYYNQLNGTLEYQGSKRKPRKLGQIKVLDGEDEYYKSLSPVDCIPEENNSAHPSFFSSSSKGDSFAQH
Chain of UniProt O14757 (whole entry, looked up): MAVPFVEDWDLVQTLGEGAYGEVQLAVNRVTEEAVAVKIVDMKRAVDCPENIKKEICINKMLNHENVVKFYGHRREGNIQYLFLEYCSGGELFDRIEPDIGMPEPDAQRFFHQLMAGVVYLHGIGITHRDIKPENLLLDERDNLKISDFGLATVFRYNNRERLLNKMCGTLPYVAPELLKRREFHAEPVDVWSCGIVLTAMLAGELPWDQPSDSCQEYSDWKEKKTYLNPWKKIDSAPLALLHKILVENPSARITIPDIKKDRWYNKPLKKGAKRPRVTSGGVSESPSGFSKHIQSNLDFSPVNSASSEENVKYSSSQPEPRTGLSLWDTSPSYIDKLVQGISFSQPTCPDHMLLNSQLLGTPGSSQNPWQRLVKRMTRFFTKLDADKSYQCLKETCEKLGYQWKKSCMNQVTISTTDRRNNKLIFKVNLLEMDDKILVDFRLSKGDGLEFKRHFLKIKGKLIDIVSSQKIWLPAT
Chain of UniProt Q14012 (whole entry, looked up): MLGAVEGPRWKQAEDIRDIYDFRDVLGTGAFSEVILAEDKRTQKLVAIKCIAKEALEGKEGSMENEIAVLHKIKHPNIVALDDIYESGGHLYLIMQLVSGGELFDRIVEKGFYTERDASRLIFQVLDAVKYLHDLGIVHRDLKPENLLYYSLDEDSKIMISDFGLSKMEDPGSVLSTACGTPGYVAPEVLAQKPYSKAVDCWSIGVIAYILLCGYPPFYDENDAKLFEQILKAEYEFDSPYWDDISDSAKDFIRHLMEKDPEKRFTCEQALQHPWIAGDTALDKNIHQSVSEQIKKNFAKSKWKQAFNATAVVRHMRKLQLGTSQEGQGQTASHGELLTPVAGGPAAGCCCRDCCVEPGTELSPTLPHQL
Chain of UniProt Q9BUB5 (whole entry, looked up): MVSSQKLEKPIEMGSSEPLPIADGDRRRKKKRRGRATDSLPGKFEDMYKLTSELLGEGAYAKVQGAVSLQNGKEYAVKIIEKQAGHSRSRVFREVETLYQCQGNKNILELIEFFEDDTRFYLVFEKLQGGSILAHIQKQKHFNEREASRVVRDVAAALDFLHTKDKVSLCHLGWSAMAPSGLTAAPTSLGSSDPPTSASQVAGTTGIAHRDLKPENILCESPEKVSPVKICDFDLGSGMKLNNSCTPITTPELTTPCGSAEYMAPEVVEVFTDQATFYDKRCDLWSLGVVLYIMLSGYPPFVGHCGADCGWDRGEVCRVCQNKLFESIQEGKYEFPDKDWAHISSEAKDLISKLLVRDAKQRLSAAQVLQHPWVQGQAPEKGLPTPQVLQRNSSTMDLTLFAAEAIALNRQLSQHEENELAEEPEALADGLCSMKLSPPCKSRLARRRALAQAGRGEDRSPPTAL
Chain of UniProt P48730 (whole entry, looked up): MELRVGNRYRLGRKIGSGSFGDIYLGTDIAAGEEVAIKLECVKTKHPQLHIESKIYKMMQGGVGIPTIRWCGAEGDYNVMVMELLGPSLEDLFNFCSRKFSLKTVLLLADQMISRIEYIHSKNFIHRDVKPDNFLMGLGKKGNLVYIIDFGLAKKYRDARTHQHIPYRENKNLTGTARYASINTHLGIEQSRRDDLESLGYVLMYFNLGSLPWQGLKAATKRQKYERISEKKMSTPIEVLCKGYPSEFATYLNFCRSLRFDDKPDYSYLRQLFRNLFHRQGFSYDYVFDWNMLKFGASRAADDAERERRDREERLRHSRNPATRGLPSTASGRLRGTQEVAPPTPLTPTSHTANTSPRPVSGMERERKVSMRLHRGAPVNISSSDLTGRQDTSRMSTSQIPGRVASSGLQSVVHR

Set 1 — SMILES: O=c1cc(N2CCOCC2)oc2c(-c3ccccc3)cccc12; read-out: enzyme activity; mode: inhibitor; tested at: 0.5 µM; baseline: control; quantity: remaining activity
Serine/threonine-protein kinase Sgk2 (SGK2, Homo sapiens, UniProt Q9HBY8): 97%
Casein kinase I isoform delta (CSNK1D, Homo sapiens, UniProt P48730): 100%
Insulin-like growth factor 1 receptor (IGF1R, Homo sapiens, UniProt P08069): 102%
Serine/threonine-protein kinase PAK 1 (PAK1, Homo sapiens, UniProt Q13153): 97.8%
Ephrin type-A receptor 2 (EPHA2, Homo sapiens, UniProt P29317): 104%
SRSF protein kinase 1 (SRPK1, Homo sapiens, UniProt Q96SB4): 104%
Mitogen-activated protein kinase kinase kinase 20 (MAP3K20, Homo sapiens, UniProt Q9NYL2): 94.2%
Ephrin type-A receptor 6 (EPHA6, Homo sapiens, UniProt Q9UF33): 87%
Calcium/calmodulin-dependent protein kinase kinase 1 (CAMKK1, Homo sapiens, UniProt Q8N5S9): 105%
Muscle, skeletal receptor tyrosine-protein kinase (MUSK, Homo sapiens, UniProt O15146): 102%
Casein kinase I isoform epsilon (CSNK1E, Homo sapiens, UniProt P49674): 103%
Tyrosine-protein kinase receptor TYRO3 (TYRO3, Homo sapiens, UniProt Q06418): 107%
Calcium/calmodulin-dependent protein kinase type 1 (CAMK1, Homo sapiens, UniProt Q14012): 96.7%
Dual specificity protein kinase CLK2 (CLK2, Homo sapiens, UniProt P49760): 100%
Tyrosine-protein kinase JAK1 (JAK1, Homo sapiens, UniProt P23458): 108%
Tyrosine-protein kinase Tec (TEC, Homo sapiens, UniProt P42680): 107%
Dual specificity protein kinase CLK1 (CLK1, Homo sapiens, UniProt P49759): 112%
Cyclin-dependent kinase 2, with cyclin E (CDK2, Homo sapiens, UniProt P24941): 93%
Ribosomal protein S6 kinase alpha-3 (RPS6KA3, Homo sapiens, UniProt P51812): 98.1%
Protein kinase C theta type (PRKCQ, Homo sapiens, UniProt Q04759): 112%
Serine/threonine-protein kinase SIK2 (SIK2, Homo sapiens, UniProt Q9H0K1): 96.8%
Serine/threonine-protein kinase PAK 6 (PAK6, Homo sapiens, UniProt Q9NQU5): 115%

Set 2 — read-out: cell-free assay; method: competition with immobilised ligand; tested at: 1 µM; quantity: remaining binding
SMILES: CCS(=O)(=O)c1cc2cc(C[C@@](O)(CC(C)(C)c3ccc(F)cc3C(N)=O)C(F)(F)F)[nH]c2cn1
Mitogen-activated protein kinase 13 (MAPK13, Homo sapiens, UniProt O15264): 96%
Rho-associated protein kinase 1 (ROCK1, Homo sapiens, UniProt Q13464): 69%
Serine/threonine-protein kinase/endoribonuclease IRE1 (ERN1, Homo sapiens, UniProt O75460): 75%
Serine/threonine-protein kinase LATS1 (LATS1, Homo sapiens, UniProt O95835): 77%
Phosphatidylinositol 4-phosphate 5-kinase type-1 gamma (PIP5K1C, Homo sapiens, UniProt O60331): 98%
Activin receptor type-1B (ACVR1B, Homo sapiens, UniProt P36896): 100%
Serine/threonine-protein kinase Nek2 (NEK2, Homo sapiens, UniProt P51955): 94%
Aurora kinase B (AURKB, Homo sapiens, UniProt Q96GD4): 71%
Myosin-IIIb (MYO3B, Homo sapiens, UniProt Q8WXR4): 79%
Cyclin-dependent kinase 5 (CDK5, Homo sapiens, UniProt Q00535): 100%
Muscle, skeletal receptor tyrosine-protein kinase (MUSK, Homo sapiens, UniProt O15146): 60%
Casein kinase I isoform alpha-like (CSNK1A1L, Homo sapiens, UniProt Q8N752): 99%
Homeodomain-interacting protein kinase 2 (HIPK2, Homo sapiens, UniProt Q9H2X6): 100%

Set 3 — mode: inhibitor; quantity: inhibition
SMILES: Cc1nc(Nc2ncc(C(=O)Nc3c(C)cccc3Cl)s2)cc(N2CCN(CCO)CC2)n1
Mitogen-activated protein kinase 7 (MAPK7, Homo sapiens, UniProt Q13164); 10 µM: < 50%
Calcium/calmodulin-dependent protein kinase type II subunit alpha (CAMK2A, Homo sapiens, UniProt Q9UQM7); 10 µM: < 50%
Calcium/calmodulin-dependent protein kinase type 1D (CAMK1D, Homo sapiens, UniProt Q8IU85); 10 µM: < 50%
MAP kinase-interacting serine/threonine-protein kinase 2 (MKNK2, Homo sapiens, UniProt Q9HBH9); 10 µM: < 50%
MAP kinase-interacting serine/threonine-protein kinase 1 (MKNK1, Homo sapiens, UniProt Q9BUB5); 1 µM: < 50%
Glycogen synthase kinase-3 beta (GSK3B, Homo sapiens, UniProt P49841); 1 µM: < 50%
Serine/threonine-protein kinase 16 (STK16, Homo sapiens, UniProt O75716); 10 µM: < 50%
Serine/threonine-protein kinase Chk1 (CHEK1, Homo sapiens, UniProt O14757); 1 µM: < 50%
Mitogen-activated protein kinase kinase kinase 4 (MAP3K4, Homo sapiens, UniProt Q9Y6R4); 1 µM: 74%
Cyclin-dependent kinase 11A (CDK11A, Homo sapiens, UniProt Q9UQ88); 10 µM: < 50%
Serine/threonine-protein kinase PAK 2 (PAK2, Homo sapiens, UniProt Q13177); 10 µM: < 50%
Discoidin domain-containing receptor 2 (DDR2, Homo sapiens, UniProt Q16832); 1 µM: 95%

Set 4 — host: cancer patients; sample: plasma; route: oral; quantity: Tmax, median
SMILES: COc1ccc(-c2c(Nc3ccccn3)[nH]c3c(C4=CCCCC4)c(-c4ccccc4)nn3c2=O)cc1
400 mg, cycle 0 day -3, single dose: 5 h
400 mg once daily, cycle 1 day 15, multiple dosing: 3 h
200 mg once daily, cycle 1 day 15, multiple dosing: 3 h
100 mg once daily, cycle 1 day 15, multiple dosing: 3 h
100 mg, cycle 0 day -3, single dose: 3 h
150 mg once daily, cycle 1 day 15, multiple dosing: 2 h
